Published values pooled from the literature.
Each line is one published result; not all experiments were run side by side. Several values in a cell are separate wells, animals, samples, runs or records. Numbers after ± are the reported error.

SMILES = Cc1noc(C)c1Cn1cc(N2C(=O)CN(Cc3cccc(OS(=O)(=O)O)c3)C2=O)cn1; system = rat Sprague-Dawley male, plasma; conditions = intravenous, 1 mg/kg of parent drug, 12 h; plasma concentration = 12 ng/mL
SMILES = Cc1cccc(Cn2ncc3c4cc(F)c(CN(C)C)cc4n(C)c3c2=O)n1; system = Dutch-belted rabbit, plasma; conditions = intravitreal, 100 µM vitreous, 2.00 days; plasma concentration = not detected
SMILES = Cc1nn(-c2nc3c(F)cc(F)cc3s2)c(O)c1C(c1ccc(C(F)(F)F)cc1)c1c(C)nn(-c2nc3c(F)cc(F)cc3s2)c1O; system = ICR mouse; conditions = oral, 50 mg/kg, 2.00 h; plasma concentration = 31300 ng/mL and 226 ng/mL and 569 ng/mL
SMILES = CCC(=O)N(C)c1ccc(Cl)c(Cl)c1; test = LC-MS/MS; system = mouse C57BL/6 female, plasma; conditions = intravenous, 2 mg/kg, 1 h; plasma concentration = 62.2 ng/mL and 138 ng/mL and 49.4 ng/mL
SMILES = CCCC[C@H](OC(C)=O)c1ccccc1C(=O)O; system = beagle dog, both sexes, whole blood; conditions = intravenous, 0.5 mg/kg, 1 min, single dose; plasma concentration = 1390 ± 441 ng/mL
SMILES = O=C(NS(=O)(=O)c1cccs1)c1cc2ccccc2n1Cc1ccc(Br)c2ccccc12; system = Sprague-Dawley rat, male, plasma; conditions = oral, 2 mg/kg, 24 h; plasma concentration = 2.83 ng/mL
SMILES = CC(=O)N[C@H](CC(=O)O)C(=O)N[C@H](Cc1c[nH]c2ccccc12)C(=O)N[C@H](Cc1ccccc1)C(=O)N[C@H](CCCCN)C(=O)N[C@H](C)C(=O)N[C@H](Cc1ccccc1)C(=O)N[C@H](Cc1ccc(O)cc1)C(=O)N[C@H](CC(=O)O)C(=O)N[C@H](CCCCN)C(=O)N[C@@H](C(=O)N[C@H](C)C(=O)N[C@H](CCC(=O)O)C(=O)N[C@H](CCCCN)C(=O)N[C@H](Cc1ccccc1)C(=O)N[C@H](CCCCN)C(=O)N[C@H](CCC(=O)O)C(=O)N[C@H](C)C(=O)N[C@H](Cc1ccccc1)C(N)=O)C(C)C; system = human, plasma; conditions = oral, 500 mg daily, 8 h post-dose, day 13; plasma concentration = 16.1 ng/mL
SMILES = Cc1noc(C)c1Cn1cc(N2C(=O)CN(Cc3cccc(O[C@@H]4O[C@H](C(=O)O)[C@@H](O)[C@H](O)[C@H]4O)c3)C2=O)cn1; system = rat Sprague-Dawley male, plasma; conditions = intravenous, 1 mg/kg of parent drug, 0.5 h; plasma concentration = 69 ng/mL
SMILES = COc1ccc2c(c1)CN(C(=O)CCN1CCC(Cc3ccccc3)CC1)CCS2; system = paroxysmal atrial fibrillation patients, plasma; conditions = oral, 540 mg, 60 min; plasma concentration = 353 ± 73.2 ng/mL
SMILES = Cc1ncsc1-c1ccc(CNC(=O)[C@@H]2C[C@@H](O)CN2C(=O)[C@@H](NC(=O)COCC(C)(COCCOCCOCCNC(=O)C[C@@H]2N=C(c3ccc(Cl)cc3)c3c(sc(C)c3C)-n3c(C)nnc32)COCCOCCOCCNC(=O)C[C@@H]2N=C(c3ccc(Cl)cc3)c3c(sc(C)c3C)-n3c(C)nnc32)C(C)(C)C)cc1; system = male C57BL/6 mice, plasma; conditions = subcutaneous, 5 mg/kg, 30 min, 20-fold diluted sample; plasma concentration = 1370 ng/mL and 1910 ng/mL

Excerpt of the above:
SMILES = Cc1ncsc1-c1ccc(CNC(=O)[C@@H]2C[C@@H](O)CN2C(=O)[C@@H](NC(=O)COCC(C)(COCCOCCOCCNC(=O)C[C@@H]2N=C(c3ccc(Cl)cc3)c3c(sc(C)c3C)-n3c(C)nnc32)COCCOCCOCCNC(=O)C[C@@H]2N=C(c3ccc(Cl)cc3)c3c(sc(C)c3C)-n3c(C)nnc32)C(C)(C)C)cc1; system = male C57BL/6 mice, plasma; conditions = subcutaneous, 5 mg/kg, 30 min, 20-fold diluted sample; plasma concentration = 1370 ng/mL and 1910 ng/mL
